Results collected from several papers.
Protocols differ between the studies behind these lines. ± gives the spread as reported.
IDO1: Indoleamine 2,3-dioxygenase 1 (IDO1, Homo sapiens, UniProt P14902)
ESR1: Estrogen receptor (ESR1, Homo sapiens, UniProt P03372)
ABL1: Tyrosine-protein kinase ABL1 (ABL1, Homo sapiens, UniProt P00519)
HASPIN: Serine/threonine-protein kinase haspin (HASPIN, Homo sapiens, UniProt Q8TF76)

Chains of the proteins cited; added tags and fusions are not shown. Lines headed by an entry give the natural chain unless they say otherwise; changes in a name come on top. Residues count along the entry.
UniProt P14902, whole entry: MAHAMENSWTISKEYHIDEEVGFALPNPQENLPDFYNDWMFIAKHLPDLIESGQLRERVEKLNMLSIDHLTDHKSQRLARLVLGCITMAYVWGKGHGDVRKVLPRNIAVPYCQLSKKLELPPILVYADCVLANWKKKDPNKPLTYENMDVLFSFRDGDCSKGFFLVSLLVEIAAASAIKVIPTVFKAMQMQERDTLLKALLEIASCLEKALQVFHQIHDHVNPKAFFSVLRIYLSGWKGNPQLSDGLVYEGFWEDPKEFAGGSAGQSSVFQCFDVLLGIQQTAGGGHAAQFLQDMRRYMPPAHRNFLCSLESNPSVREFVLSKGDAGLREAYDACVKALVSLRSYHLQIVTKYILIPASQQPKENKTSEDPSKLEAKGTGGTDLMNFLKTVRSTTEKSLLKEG
UniProt P03372, whole entry: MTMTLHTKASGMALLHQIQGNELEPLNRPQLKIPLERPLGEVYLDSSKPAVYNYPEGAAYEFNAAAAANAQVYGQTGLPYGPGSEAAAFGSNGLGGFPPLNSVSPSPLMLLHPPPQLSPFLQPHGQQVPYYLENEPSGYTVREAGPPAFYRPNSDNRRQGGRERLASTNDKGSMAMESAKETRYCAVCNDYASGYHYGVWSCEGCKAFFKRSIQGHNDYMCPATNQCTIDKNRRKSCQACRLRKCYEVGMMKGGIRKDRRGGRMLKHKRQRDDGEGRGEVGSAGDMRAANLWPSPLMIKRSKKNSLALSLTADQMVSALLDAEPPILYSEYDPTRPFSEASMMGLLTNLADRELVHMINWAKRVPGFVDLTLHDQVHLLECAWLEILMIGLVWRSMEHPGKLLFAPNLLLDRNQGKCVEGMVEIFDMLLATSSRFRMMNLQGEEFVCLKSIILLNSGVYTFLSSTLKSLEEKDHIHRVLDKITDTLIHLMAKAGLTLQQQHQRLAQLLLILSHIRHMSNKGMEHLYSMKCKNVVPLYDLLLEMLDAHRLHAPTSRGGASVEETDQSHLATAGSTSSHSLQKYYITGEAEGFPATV
UniProt P31421, 19-872 limits assumed: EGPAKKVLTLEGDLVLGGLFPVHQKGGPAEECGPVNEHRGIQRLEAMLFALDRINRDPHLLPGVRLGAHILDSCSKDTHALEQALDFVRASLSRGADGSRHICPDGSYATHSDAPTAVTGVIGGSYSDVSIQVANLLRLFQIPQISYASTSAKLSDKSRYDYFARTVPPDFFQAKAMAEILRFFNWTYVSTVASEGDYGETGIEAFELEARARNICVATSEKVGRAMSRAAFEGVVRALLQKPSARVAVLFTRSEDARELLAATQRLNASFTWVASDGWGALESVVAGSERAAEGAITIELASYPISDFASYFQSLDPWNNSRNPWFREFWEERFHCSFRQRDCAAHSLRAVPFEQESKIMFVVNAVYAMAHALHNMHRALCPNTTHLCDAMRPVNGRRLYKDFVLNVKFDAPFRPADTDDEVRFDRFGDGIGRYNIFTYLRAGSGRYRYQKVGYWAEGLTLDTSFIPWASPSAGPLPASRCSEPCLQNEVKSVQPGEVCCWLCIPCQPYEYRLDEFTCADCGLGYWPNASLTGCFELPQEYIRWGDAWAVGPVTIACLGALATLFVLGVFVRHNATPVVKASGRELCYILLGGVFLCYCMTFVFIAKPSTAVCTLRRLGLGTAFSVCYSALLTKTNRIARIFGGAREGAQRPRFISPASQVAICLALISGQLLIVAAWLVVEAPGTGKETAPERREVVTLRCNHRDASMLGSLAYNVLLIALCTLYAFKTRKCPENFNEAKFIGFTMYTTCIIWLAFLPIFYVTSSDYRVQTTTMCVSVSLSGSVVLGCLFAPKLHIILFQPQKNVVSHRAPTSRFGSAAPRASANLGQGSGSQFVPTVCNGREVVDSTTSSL
UniProt O14920, whole entry: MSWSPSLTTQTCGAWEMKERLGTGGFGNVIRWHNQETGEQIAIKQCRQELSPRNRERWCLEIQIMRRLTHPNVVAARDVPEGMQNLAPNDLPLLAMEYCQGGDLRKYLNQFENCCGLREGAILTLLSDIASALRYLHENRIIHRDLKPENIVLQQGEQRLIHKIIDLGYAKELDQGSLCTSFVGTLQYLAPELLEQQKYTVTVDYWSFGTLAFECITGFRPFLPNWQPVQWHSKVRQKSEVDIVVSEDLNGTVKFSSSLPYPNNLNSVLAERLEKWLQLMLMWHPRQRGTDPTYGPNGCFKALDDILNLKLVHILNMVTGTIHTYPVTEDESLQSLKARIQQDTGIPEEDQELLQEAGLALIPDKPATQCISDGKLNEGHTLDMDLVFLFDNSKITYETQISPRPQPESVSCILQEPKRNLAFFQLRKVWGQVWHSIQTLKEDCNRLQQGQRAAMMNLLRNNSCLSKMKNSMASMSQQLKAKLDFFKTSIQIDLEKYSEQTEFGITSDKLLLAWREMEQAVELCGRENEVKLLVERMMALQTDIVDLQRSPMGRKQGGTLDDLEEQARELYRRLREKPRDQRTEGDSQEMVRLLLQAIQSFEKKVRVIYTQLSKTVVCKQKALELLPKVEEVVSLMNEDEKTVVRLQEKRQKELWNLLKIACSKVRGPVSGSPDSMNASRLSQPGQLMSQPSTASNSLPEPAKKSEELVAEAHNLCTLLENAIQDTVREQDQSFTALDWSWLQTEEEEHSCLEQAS
UniProt Q99436, whole entry, looked up: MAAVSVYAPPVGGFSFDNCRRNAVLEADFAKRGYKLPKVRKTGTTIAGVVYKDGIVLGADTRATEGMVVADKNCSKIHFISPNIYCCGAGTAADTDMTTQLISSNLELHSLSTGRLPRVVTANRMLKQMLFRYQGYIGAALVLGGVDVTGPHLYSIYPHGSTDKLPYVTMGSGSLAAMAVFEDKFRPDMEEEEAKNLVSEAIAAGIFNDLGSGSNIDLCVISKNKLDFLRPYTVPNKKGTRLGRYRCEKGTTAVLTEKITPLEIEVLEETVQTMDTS
UniProt P55072, whole entry: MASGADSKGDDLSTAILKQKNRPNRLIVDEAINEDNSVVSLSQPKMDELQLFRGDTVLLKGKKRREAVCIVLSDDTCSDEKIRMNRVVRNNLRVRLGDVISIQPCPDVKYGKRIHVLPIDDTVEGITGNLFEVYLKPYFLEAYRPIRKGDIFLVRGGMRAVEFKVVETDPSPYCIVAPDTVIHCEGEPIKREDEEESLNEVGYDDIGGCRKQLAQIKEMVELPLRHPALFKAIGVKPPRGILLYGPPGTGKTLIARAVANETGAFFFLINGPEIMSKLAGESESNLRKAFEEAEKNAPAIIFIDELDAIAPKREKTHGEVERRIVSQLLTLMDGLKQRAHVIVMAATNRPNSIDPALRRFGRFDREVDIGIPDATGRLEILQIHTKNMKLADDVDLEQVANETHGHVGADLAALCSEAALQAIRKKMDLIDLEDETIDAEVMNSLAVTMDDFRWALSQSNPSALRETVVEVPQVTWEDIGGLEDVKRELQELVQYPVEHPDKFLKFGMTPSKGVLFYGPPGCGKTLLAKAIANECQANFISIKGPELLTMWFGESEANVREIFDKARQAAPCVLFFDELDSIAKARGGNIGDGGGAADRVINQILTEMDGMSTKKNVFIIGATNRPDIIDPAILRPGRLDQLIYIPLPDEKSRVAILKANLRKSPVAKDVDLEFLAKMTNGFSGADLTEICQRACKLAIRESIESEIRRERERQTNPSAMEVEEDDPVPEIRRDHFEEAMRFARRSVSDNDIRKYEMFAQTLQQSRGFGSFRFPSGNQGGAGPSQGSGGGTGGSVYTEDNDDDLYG
UniProt P50750, whole entry: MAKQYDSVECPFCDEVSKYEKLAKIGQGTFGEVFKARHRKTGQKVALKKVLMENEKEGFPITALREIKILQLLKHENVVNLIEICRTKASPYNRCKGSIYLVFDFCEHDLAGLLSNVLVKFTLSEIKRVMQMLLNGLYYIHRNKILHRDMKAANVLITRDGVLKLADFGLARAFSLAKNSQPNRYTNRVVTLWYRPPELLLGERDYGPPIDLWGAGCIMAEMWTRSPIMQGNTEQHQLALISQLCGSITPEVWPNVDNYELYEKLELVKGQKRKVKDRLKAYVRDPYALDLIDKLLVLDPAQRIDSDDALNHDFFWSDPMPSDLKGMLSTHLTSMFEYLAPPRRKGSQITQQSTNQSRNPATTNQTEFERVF
UniProt P31424, 21-1203 limits assumed: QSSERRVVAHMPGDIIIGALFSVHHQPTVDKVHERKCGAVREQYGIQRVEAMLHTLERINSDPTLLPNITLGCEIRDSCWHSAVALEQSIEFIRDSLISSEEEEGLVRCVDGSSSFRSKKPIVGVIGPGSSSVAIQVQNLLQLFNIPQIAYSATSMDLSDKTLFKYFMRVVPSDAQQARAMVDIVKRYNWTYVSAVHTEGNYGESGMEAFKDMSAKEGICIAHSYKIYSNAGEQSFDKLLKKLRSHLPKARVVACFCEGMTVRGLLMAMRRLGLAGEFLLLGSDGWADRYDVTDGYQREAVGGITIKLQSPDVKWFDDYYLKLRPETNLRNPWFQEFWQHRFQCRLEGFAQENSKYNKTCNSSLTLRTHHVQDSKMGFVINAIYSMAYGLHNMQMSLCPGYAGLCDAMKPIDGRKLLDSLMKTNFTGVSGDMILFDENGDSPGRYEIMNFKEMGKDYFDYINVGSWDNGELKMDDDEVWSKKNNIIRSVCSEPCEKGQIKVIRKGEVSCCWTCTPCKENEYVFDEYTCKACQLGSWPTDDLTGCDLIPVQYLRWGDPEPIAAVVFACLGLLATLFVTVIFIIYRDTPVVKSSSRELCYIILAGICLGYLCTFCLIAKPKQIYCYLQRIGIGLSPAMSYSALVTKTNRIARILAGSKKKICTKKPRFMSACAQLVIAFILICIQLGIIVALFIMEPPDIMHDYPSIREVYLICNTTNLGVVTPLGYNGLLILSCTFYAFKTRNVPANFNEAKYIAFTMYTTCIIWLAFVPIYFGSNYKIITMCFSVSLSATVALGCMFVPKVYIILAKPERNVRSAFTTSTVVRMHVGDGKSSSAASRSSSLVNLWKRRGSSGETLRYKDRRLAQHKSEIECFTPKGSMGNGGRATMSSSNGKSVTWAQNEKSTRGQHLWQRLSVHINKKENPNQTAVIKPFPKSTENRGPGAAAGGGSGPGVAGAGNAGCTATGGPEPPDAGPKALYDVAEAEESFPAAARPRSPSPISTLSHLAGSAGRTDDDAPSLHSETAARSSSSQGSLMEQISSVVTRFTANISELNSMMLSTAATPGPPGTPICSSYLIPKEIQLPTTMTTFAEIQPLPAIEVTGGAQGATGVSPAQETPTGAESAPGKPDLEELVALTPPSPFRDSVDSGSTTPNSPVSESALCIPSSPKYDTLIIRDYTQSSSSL
UniProt P07384, whole entry: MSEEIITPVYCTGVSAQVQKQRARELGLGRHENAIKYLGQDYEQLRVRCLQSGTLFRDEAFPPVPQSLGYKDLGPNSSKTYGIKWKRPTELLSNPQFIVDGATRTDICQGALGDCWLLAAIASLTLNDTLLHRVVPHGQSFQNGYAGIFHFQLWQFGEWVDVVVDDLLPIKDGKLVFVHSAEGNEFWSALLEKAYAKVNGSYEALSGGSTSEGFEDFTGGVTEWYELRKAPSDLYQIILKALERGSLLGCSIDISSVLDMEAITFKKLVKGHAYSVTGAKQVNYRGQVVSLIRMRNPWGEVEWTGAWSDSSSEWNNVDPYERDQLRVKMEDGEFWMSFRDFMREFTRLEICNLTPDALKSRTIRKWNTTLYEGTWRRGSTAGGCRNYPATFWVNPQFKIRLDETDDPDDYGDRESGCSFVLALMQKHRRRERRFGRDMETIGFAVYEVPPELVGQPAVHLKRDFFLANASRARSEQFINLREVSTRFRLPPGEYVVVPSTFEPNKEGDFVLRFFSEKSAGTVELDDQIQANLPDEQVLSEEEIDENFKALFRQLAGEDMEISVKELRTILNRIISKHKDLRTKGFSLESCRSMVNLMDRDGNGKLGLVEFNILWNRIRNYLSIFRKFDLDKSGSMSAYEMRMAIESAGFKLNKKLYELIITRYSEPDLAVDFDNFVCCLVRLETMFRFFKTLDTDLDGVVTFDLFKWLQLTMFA
UniProt O00519, whole entry: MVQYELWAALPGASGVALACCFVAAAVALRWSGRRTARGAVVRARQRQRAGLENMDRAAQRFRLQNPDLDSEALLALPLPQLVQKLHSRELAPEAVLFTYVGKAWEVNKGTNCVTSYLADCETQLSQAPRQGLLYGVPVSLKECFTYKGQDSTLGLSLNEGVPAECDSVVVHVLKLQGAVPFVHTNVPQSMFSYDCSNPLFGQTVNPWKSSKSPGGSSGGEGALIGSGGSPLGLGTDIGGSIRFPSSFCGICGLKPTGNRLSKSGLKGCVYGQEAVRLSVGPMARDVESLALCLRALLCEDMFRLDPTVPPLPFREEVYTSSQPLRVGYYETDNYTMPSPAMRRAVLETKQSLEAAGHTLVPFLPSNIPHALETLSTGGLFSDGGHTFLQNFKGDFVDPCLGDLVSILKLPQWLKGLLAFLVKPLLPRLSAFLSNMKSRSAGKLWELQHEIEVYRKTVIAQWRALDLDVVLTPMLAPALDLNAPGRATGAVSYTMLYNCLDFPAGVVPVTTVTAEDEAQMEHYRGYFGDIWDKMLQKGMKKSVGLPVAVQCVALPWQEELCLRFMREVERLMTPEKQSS

| Structure (SMILES) | target | test | system | setting | IC50 [µM] |
| --- | --- | --- | --- | --- | --- |
| CS(=O)(=O)Oc1ccc(/C=C/c2c[nH]c3ccc(C#N)cc23)cc1 | IDO1 | enzyme activity, inhibitor | – | – | > 50 |
| Cc1cnc(C#Cc2cccc(-c3nn(-c4nc(C(=O)O)cs4)c(CC4CC4)c3Cc3ccc(S(N)(=O)=O)c(F)c3)c2)o1 | LDHA (Homo sapiens, UniProt P00338) | enzyme activity, inhibitor | – | – | 0.01 |
| COc1cc(C(=O)N2CCC(N3CCN(C)CC3)CC2)ccc1Nc1ncc2c(n1)N(C(C)C)c1ccccc1C(=O)N2C | LRRK2 (Homo sapiens, UniProt Q5S007) | kinase activity, Adapta | – | – | 0.054 ± 0.004 |
| CCN(CC)Cc1cccc(/C=C/c2nc3ccc(F)cc3c(=O)n2-c2ccccc2Cl)n1 | Gria2 (Rattus norvegicus, UniProt P19491) | glutamate-induced current, inhibitor, whole-cell patch clamp | HEK293 | holding -60 mV, together with: 3 mM glutamate, 30 µM cyclothiazide | 0.76 ± 0.03 |
| Cc1ncc(CN(C)c2ccc3c(c2)c(=O)c(C(N)=O)cn3-c2ccc(F)cc2)cn1 | Grm2 (Rattus norvegicus, UniProt P31421) | calcium mobilization, negative allosteric modulator | – | – | 0.147 |
| COc1cc2nccc(Nc3ccc(NC(=O)c4ccc(C)cc4)c(O)c3)c2cc1OC | PKN3 (Homo sapiens, UniProt Q6P5Z2) | binding, split-luciferase | – | – | 38 |
| O=C(Nc1ccc(-c2cccc3ncccc23)cc1)C1CCN(S(=O)(=O)c2ccccc2Cl)CC1 | Ephx2 (Rattus norvegicus, UniProt P80299) | enzyme activity, inhibitor, fluorescence | rat | pH 7.4, 37 °C | 0.002 |
| CC1(C)C(=S)Nc2ccccc21 | MMP2 (Homo sapiens, UniProt P08253) | inhibitor | – | – | > 200 |
| Cc1ccc(NC(=O)c2cccc(C(F)(F)F)c2)cc1Nc1ncccc1-c1cc(Nc2ccc(OCCNC(=O)CCCC(=O)NCc3ccc(COc4nc(N)nc5[nH]cnc45)cc3)cc2)ncn1 | Proto-oncogene tyrosine-protein kinase Src, SH3-SH2-kinase domains (SRC, Gallus gallus, UniProt P00523) | enzyme activity, inhibitor | – | unphosphorylated form, enzyme 10 nM | 0.44 ± 0.03 |
| O=C1NC(=S)NC(=O)C1=Cc1cn(C(=O)c2ccc3ccccc3c2)c2ccccc12 | DNA polymerase eta (POLH, Homo sapiens, UniProt Q9Y253) | DNA polymerase activity, inhibitor, fluorescence | – | together with: dTTP 100 µM | 25 |
| O=C(CCCn1c(=S)[nH]c2ccccc2c1=O)N1CCN(c2cccc(C(F)(F)F)c2)CC1 | ESR1 | reporter gene, coactivator binding inhibitor, luciferase reporter | HEC-1 cells transfected with ERα | partial inhibition, together with: estradiol 1 nM | 35 |
| CCn1cc(NCc2ccccc2)c(C(=O)O)n1 | TDO2 (Homo sapiens, UniProt P48775) | – | – | together with: L-tryptophan 400 µM | 262 |
| CN1CC[C@H](c2c(O)cc(O)c3c(=O)cc(-c4ccccc4F)oc23)[C@H](O)C1 | Cyclin-dependent kinase 5, with p35 (CDK5, Homo sapiens, UniProt Q00535) | – | – | ATP at Km | 0.086 |
| Oc1ccccc1C1=NCCS1 | Adenosine deaminase (ADA, Bos taurus, UniProt P56658) | enzyme activity | – | 25 °C | > 700 |
| CCOCCN1CCN(c2cc(N3CCCC3)nc(N3CCCC3)n2)CC1 | Caspase-1 (CASP1, Homo sapiens, UniProt P29466) | enzyme activity, inhibitor | – | 30 min preincubation, together with: Ac-WEHD-AMC 10 µM | 0.043 ± 0.003 |
| O=C(Nc1ccc(-c2nc3ccccc3[nH]2)cc1)c1ccccc1F | Tyrosine-protein kinase SYK, with FCER1G (SYK, Homo sapiens, UniProt P43405) | protein binding, inhibitor, TR-FRET | – | – | > 100 |
| CN1CCN(c2cc(C(=O)Nc3ccc4c(c3)-c3c(c(C(N)=O)nn3-c3ccc(F)cc3)CC4)c(Cl)cn2)CC1 | IKBKB (Homo sapiens, UniProt O14920) | kinase activity, inhibitor | stimulated RASF cell lysate | 1 h, together with: IL-1β stimulation | 0.03 to 0.06 |
| C[C@@H](CC(=O)NCc1cccc2ccccc12)NC(=O)[C@H](CC(=O)NC(C)(C)C)NC(=O)OC(C)(C)C | Proteasome component C5/PSMB5 (Homo sapiens, UniProt P20618+P28074) | enzyme activity, inhibitor | – | together with: suc-LLVY-AMC | > 100 |
| N#Cc1ccc2[nH]cc(/C=C/c3ccncc3)c2c1 | IDO1 | enzyme activity, inhibitor | – | – | > 50 |
| Clc1ccc(C2(c3ccc(-c4ccncc4)cc3)CCNCC2)cc1 | LATS2 (Homo sapiens, UniProt Q9NRM7) | kinase activity, inhibitor, radiometric HotSpot | – | together with: ATP 10 µM | 0.007 |
| COc1cc(O)ccc1CCC(=O)c1ccc(O)cc1 | ALOX5 (Homo sapiens, UniProt P09917) | enzyme activity | cell-free | – | 8.9 |
| Nc1nc2c(ncn2COCCNC(=O)c2cc3cc(Br)ccc3c(Br)c2O)c(=O)[nH]1 | SAMHD1 (Homo sapiens, UniProt Q9Y3Z3) | ssRNA binding, fluorescence anisotropy | – | 1 µM protein, together with: FAM-labelled 32-mer ssRNA probe | ~25 |
| CC(=O)Nc1cc(Nc2cc(NC3CC3)n3ncc(C#N)c3n2)ccc1N1CCOCC1 | CSNK2A2 (Homo sapiens, UniProt P19784) | target engagement, NanoBRET | HEK293 | – | 0.015 |
| COc1cc(Nc2ncnc(-c3cccnc3Nc3cc(NC(=O)c4cccc(C(F)(F)F)c4)ccc3C)n2)cc(OC)c1OC | ABL1 | enzyme activity | – | kinase domain | 0.01 ± 0.003 |
| COc1ccc2nc3ccc(OC)cc3c(SCCN)c2c1 | HASPIN | inhibitor, TR-FRET | – | together with: histone H3 peptide | 0.2 |
| Cc1ccc(SCC(=O)Nc2ccc3nc(SCC(=O)NC(C)C)sc3c2)c(C)c1 | ESR1 | reporter gene, antagonist | HEC-1 transfected ERα luciferase reporter | – | 20 to 50 |
| CCOc1ccc2cc(-c3nn(CC4CCNCC4)c4ncnc(N)c34)ccc2c1 | ABL1 | kinase activity, inhibitor, radiometric | – | highest tested 10 µM | > 10 |
| c1ccc(-c2cc(NCCCn3ccnc3)nc(-c3ccccn3)n2)nc1 | CLEC1B, with podoplanin (Homo sapiens, UniProt Q9P126) | podoplanin binding, inhibitor, AlphaScreen | – | together with: 50 nM biotinylated podoplanin-Fc | 5.3 |

| Structure (SMILES) | target | test | system | setting | IC50 [µM] |
| --- | --- | --- | --- | --- | --- |
| CC(C)CC(C(=O)OCC(=O)Nc1cccc(Cl)c1)N1C(=O)C2CC=CCC2C1=O (stereo not shown) | Cruzipain (Trypanosoma cruzi, UniProt P25779) | enzyme activity, inhibitor, fluorogenic substrate cleavage | – | 0.01% Triton X-100, together with: Z-FR-AMC | 5 |
| Cn1nc(-c2ccccc2)cc1NC(=O)Nc1ccc(OC(F)(F)F)cc1 | ALK (Homo sapiens, UniProt Q9UM73) | ELISA | – | – | 58 |
| O=C(CC1Cc2ccccc2C1)N[C@H](CN1CC[C@@H](F)C1)[C@H](O)c1ccc(OC(F)(F)F)cc1 | UGCG (Canis lupus familiaris, UniProt A0A8I3MXG6) | inhibitor, refers to: glucosylceramide | MDCK | 24 h | 0.0232 |
| CN1CCC[C@@H]1C(=O)N[C@@H](Cc1ccc(-c2ccccn2)cc1)B(O)O | Proteasome subunit beta type-3/PSMB7, trypsin-like site (Homo sapiens, UniProt P49720+Q99436) | β2c enzyme activity, inhibitor | – | together with: Ac-KQL-AMC | > 10 |
| N#Cc1c2c(c(Sc3nnc(-c4ccccc4)n3-c3ccccc3)n3c1nc1ccccc13)CCC2 | ERO1-like protein alpha (Homo sapiens, UniProt Q96HE7) | enzyme activity, inhibitor, fluorescence | – | – | 9.6 |
| COc1ccc2nc3ccc(OC)cc3c(CCCCN)c2c1 | HASPIN | inhibitor, TR-FRET | – | inactive at 20 µM, together with: histone H3 peptide substrate | 0.025 |
| COC(=O)/C(=C/c1c[nH]c2ccc(OC)cc12)c1ccc(F)cc1 | IDO1 | enzyme activity, inhibitor | – | – | > 50 |
| O=C(Nc1ccc(-c2nc3ccccc3[nH]2)cc1)c1ccco1 | Moesin, with CD44 (Homo sapiens, UniProt P26038) | MSN-CD44 interaction, inhibitor, TR-FRET | – | together with: CD44 | 33.8 |
| CS(=O)(=O)Oc1cccc(/C=C/c2c[nH]c3ccc(F)cc23)c1 | IDO1 | enzyme activity, inhibitor | – | – | > 50 |
| CC(C)N1CCN(CCNC2CCN(c3cccc(-c4cc5cc(C(F)(F)F)ccc5[nH]4)c3)CC2)CC1 | VCP (Homo sapiens, UniProt P55072) | ATPase activity, inhibitor, ADP-Glo | – | together with: ATP 100 µM | 4.67 |
| N#Cc1ccc(N2CCN(C(=O)CCCCCn3c(=S)[nH]c4ccccc4c3=O)CC2)cc1 | ESR1 | reporter gene, antagonist | HEC-1 cells transfected with ERα | together with: estradiol 1 nM | 8 |
| CN1CCN(Cc2ccc(NC(=O)c3cncc(C#Cc4c(N)ncc5ccc(F)cc45)c3)cc2C(F)(F)F)CC1 | Kinesin-1 heavy chain/ Tyrosine-protein kinase receptor RET (RET/KIF5B, Homo sapiens, UniProt P07949+P33176) | cell viability, inhibitor, CellTiter-Glo | Ba/F3 KIF5B-RET wild type | – | 0.00425 ± 0.00025 |
| CCOc1ccc(S(=O)(=O)NC(=O)Cc2ccc(C(F)(F)F)cc2)cc1Br | CGAS (Homo sapiens, UniProt Q8N884) | enzyme activity, inhibitor, Kinase-Glo ATP depletion | – | 25 °C, 100 nM enzyme | 31.1 |
| CN1CC[C@H](c2c(O)cc(O)c3c(=O)cc(-c4cnccc4Cl)oc23)[C@H](O)C1 | Cyclin-dependent kinase 9, with cyclin T1 (CDK9, Homo sapiens, UniProt P50750) | inhibitor | – | with cyclin T1, GST-CTD substrate | 0.0135 |
| O=C(O)c1cc(C(=O)N[C@@H](Cc2c[nH]c3ccccc23)C(=O)O)cc([C@H]2CCN[C@@H]2C(=O)O)c1 | kainate receptor (rat) | binding, radioligand binding | rat cortical synaptosomes | together with: [3H]kainate | 10 to 50 |
| N#Cc1cnc(Nc2nc3ccccc3o2)nc1-c1cccc(C(F)(F)F)c1 | Grm5 (Rattus norvegicus, UniProt P31424) | calcium mobilization, negative allosteric modulator | – | together with: glutamate EC80 | > 30 |
| O=C(OC(C(F)(F)F)C(F)(F)F)N1CCc2cccc(Br)c2C1 | ABHD6 (Homo sapiens, UniProt Q9BV23) | inhibitor, fluorescence | – | – | 0.058 ± 0.0035 |
| N#Cc1cccc(C(=O)N2C[C@H](O)C[C@H]2C(=O)NCc2ccc(-c3cnco3)cc2)c1 | von Hippel-Lindau disease tumor suppressor, with elongin B, C (VHL, Homo sapiens, UniProt P40337) | binding, fluorescence polarization | – | 10% DMSO, together with: FAM-HIF1α peptide tracer | 40.3 ± 3.9 |
| [N-]=[N+]=NCc1cc(N=[N+]=[N-])cc(C(=O)NCCCc2cc(C(=O)[O-])c[n+]([C@@H]3O[C@H](COP(=O)(O)OP(=O)(O)OC[C@H]4O[C@@H](n5cnc6c(N)ncnc65)[C@H](OP(=O)(O)O)[C@@H]4O)[C@@H](O)[C@H]3O)c2)c1 | NAADP receptor Strongylocentrotus purpuratus | desensitization of calcium release | sea urchin egg homogenate | 7 min preincubation, together with: NAADP 1 µM | 13 |
| CCNC(=O)C(=O)[C@H](Cc1ccccc1)NC(=O)[C@H]1CCC(=O)N1Cc1ccccc1 | CAPN1 (Homo sapiens, UniProt P07384) | enzyme activity, inhibitor | – | – | 0.27 ± 0.03 |
| [2H]c1c([2H])c(S(=O)(=O)N2CCC(C)(C(=O)Nc3ccc4cc(C(=O)O)ccc4c3)CC2)c(C([2H])([2H])[2H])c([2H])c1C([2H])([2H])[2H] | FAAH (Homo sapiens, UniProt O00519) | – | – | pH 8, 37 °C, together with: OMP substrate 50 µM | 56 |
| O=C(O)c1cc(C(=O)N2CCC[C@H]2C(=O)O)cc([C@H]2CCN[C@@H]2C(=O)O)c1 | Glutamate receptor ionotropic, NMDA 2B, with GluN1 (Grin2b, Rattus norvegicus, UniProt Q00960) | ion current, antagonist, two-electrode voltage clamp | Xenopus oocytes | GluN1/GluN2B, together with: glycine 100 µM and glutamate 1 µM | 2.89 ± 0.1 |
| COc1ccc2[nH]cc(/C=C/c3ccc([N+](=O)[O-])cc3F)c2c1 | Amyloid-beta precursor protein, amyloid-beta peptide (APP, Homo sapiens, UniProt P05067) | Aβ42 oligomerisation, ELISA | – | – | > 20 |
| COc1cc([C@@H]2c3cc4c(cc3[C@@H](CC(C)(C)O)[C@H]3COC(=O)[C@H]23)OCO4)cc(OC)c1OC | Tubulin alpha/beta heterodimer (Leishmania infantum, UniProt A0A381MCS3+A4HTR0) | tubulin polymerization, inhibitor | – | 37 °C, together with: tubulin 1.2 mg/mL | 6.9 ± 0.5 |
| O=C(Nc1ccc(Cl)cc1)C(NS(=O)(=O)c1ccc(Br)cc1)c1ccccc1 (stereo not shown) | Uracil nucleotide/cysteinyl leukotriene receptor, long isoform (GPR17, Homo sapiens, UniProt Q13304) | calcium mobilization, antagonist | 1321-N1 | – | 17.9 ± 0.34 |
| COc1ccc(CCC2OC(=O)C3CCCCN3C(=O)C(=O)C(C)(C)COC(=O)C=CCCN(C)C(=O)CNC(=O)C(COC(C)(C)C)N(C)C(=O)C(Cc3ccc4ccccc4c3)NC(=O)C(C)N(C)C(=O)COc3cccc2c3)cc1OC (stereo not shown) | SLC2A1 (Homo sapiens, UniProt P11166) | 2-deoxyglucose uptake, inhibitor | – | together with: [3H]-2-deoxy-D-glucose | 0.046 |
| O=C(Nc1ccccc1)C12CC1/C(=N\O)c1cc(F)ccc1O2 (stereo not shown) | Grm1 (Rattus norvegicus, UniProt P23385) | antagonist, calcium mobilization | BHK | together with: glutamate EC80 | > 5 |
